Results pooled from the literature.
Compare with care: the assays were run in different laboratories. ± marks the error that the study gave. In brackets after ≈: the same amount, converted by molar mass.

COc1cccc(OC)c1-c1cc(C(=O)NC2(C(=O)O)C3CC4CC(C3)CC2C4)nn1-c1ccc(C(=O)N(C)CCCN(C)CCCN(C)C(=O)CN2CCN(CC(=O)[O-])CCN(CC(=O)[O-])CCN(CC(=O)[O-])CC2)cc1C(C)C.[177Lu+3] (stereo not drawn) — tumour-to-lung ratio (mouse, HT-29 xenograft; 24 h post injection, biodistribution; baseline: tumour over lung uptake): 59.5
CN1CCC[C@H](CN2c3ccccc3Sc3ccccc32)C1.Cl — Cmax (female Wistar rats, plasma; oral, 16 mg/kg single dose): 0.421 µg/mL
O=C(Nc1nc2cccc(-c3ccc(CN4CCS(=O)(=O)CC4)cc3)n2n1)C1CC1 — treatment-emergent adverse events (measured: any adverse event; human rheumatoid arthritis patients; oral, 150 mg once daily, 4 weeks, regardless of relatedness): 26.7%
Cn1cc(Nc2nc(N)nc(-c3cccc(-n4ccc5cc(C6CC6)cc(F)c5c4=O)c3CO)n2)cn1 — nausea incidence (healthy humans, fed; oral tablet, 50 mg twice daily (multiple dose), 14 (unit not given); baseline: subjects): 0%
Cc1ccc([C@@H]2O[C@H](CO)[C@@H](O)[C@H](O)[C@H]2O)cc1Cc1ccc(-c2ccc(F)cc2)s1 — urinary chloride excretion change (Japanese type 2 diabetes patients; 25 mg, day 16, 24 h urine collection; baseline: baseline): 1.57 mEq
C[C@@H](O)[C@H](NC(=O)c1ccc(-c2ccccc2)cc1)C(=O)NCC1(C)NC(=O)NC1=O (stereo partly drawn) — thermodynamic solubility (aqueous buffer; pH 7.4): 3.23 mM (≈ 1370 µg/mL)
Cl.[2H]C([2H])([2H])CC(=O)c1cnc(NC(=O)C2CC2)cc1Nc1cccc(-c2ncn(C([2H])([2H])[2H])n2)c1OC — Vz/F (geometric mean; human; oral, 17.5 mg single dose, fasted, liquid): 103 L
Cc1cc(C)c(CNC(=O)c2cc(Cl)c3c(c2C)O[C@@](C)([C@H]2CC[C@H](N(C)C)CC2)O3)c(=O)[nH]1 — grade ≥3 adverse event Diarrhea (relapsed/refractory NHL patients; oral, 200 mg once daily, onset after cycle 1 day 1): 4.2%
COC[C@@H](c1ccc(C(F)(F)F)cc1)N1CCN(C2(C)CCN(C(=O)c3c(C)ncnc3C)CC2)C[C@@H]1C — intercompartmental clearance (human; population PK model, added: ritonavir): 29.5 L/h
O=C(N[C@H](Cc1c[nH]c2ccccc12)C(=O)Nc1ccncc1)c1ccc(N2CCN(c3ccc(F)c(F)c3)CC2)cc1F — concentration (Swiss Webster mouse, female, intestine; oral, 50 mg/kg, 8 h, 20% HPβCD vehicle): 3.74 µM
COc1c(C)c2c(c(O[C@@H]3O[C@H](C(=O)O)[C@@H](O)[C@H](O)[C@H]3O)c1C/C=C(\C)CCC(=O)O)C(=O)OC2 — half-life, mean (healthy subjects, plasma; oral, 1 g mycophenolate mofetil, added: isavuconazole): 21.5 h
CC=CC1CCC(C2CCC(CCC)CC2)CC1 (stereo not drawn) — median fetal accumulation (rat, fetus; 1000 ng/mL in perfusate, middle dose, mixture of 21 LCMs): 0.711 ng/g
Cc1cccc(CNC(=O)c2cn(CCNC(=O)c3ccccc3Sc3c([N+](=O)[O-])ncn3C)c3cc4c(cc3c2=O)OC(F)(F)O4)n1 — AUC(0-inf) (Sprague-Dawley rat, male, plasma; intravenous, 5 mg/kg of parent drug): 0.266 ± 0.044 µg·h/mL
C[C@H]1O[C@@H](O[C@H]2[C@@H](O)C[C@H](O[C@H]3[C@@H](O)C[C@H](O[C@H]4CC[C@@]5(C)[C@H](CC[C@@H]6[C@@H]5C[C@@H](O)[C@]5(C)[C@@H](C7=CC(=O)OC7)CC[C@]65O)C4)O[C@@H]3C)O[C@@H]2C)C[C@H](O)[C@@H]1O — participants with TEAE (measured: Thirst; human; oral, 0.25 mg): 3.4%
CN1C[C@H](COc2nccc3c(NCc4ccco4)cc(Cl)nc23)OC1=O — general condition (rat Crl:CD(SD) male; oral, 300 mg/kg, single dose): negative
O=C1NCCc2nc(OCc3cccc(F)c3)ccc21 — Irwin test score (measured: Ptosis; Sprague-Dawley rat male; oral, 100 mg/kg, 30 min; direction not given): 0
OC[C@H]1O[C@@H](Oc2cc3c(O)cc(O)cc3[o+]c2-c2ccc(O)c(O)c2)[C@H](O)[C@@H](O)[C@@H]1O — hue angle (CIELAB from visible spectra; aqueous buffer; 50 µM, pH 7, ±BSA 600 µM or lysozyme 1000 µM): 17.8 ± 0.93 degrees
N#CCC1CCN(c2nc(Nc3ccc(N4CCC(O)CC4)cc3)c3c(=O)[nH]ncc3n2)CC1 — t1/2 (human, plasma; oral, 40 mg once daily, day 1): 9.1 h
Cc1c(-c2ccc(N3CCc4cccc(C(=O)Nc5nc6ccccc6s5)c4C3)nc2C(=O)O)cnn1CC12CC3(C)CC(C)(C1)CC(OCCNCC[C@H](O)CO)(C3)C2 — plasma concentration (anaesthetized male beagle dog; iv infusion, 0.01 mg/kg/min, 105 min): < 0.002 µg/mL
CCCC1CCC(C2CCC(c3cc(F)c(F)c(F)c3)CC2)CC1 (stereo not drawn) — median placental accumulation (rat, placenta; 5000 ng/mL in perfusate, high dose, mixture of 21 LCMs): 122 ng/g
CNC(=O)c1ccc(-c2cnc3ncc(Cc4ccc5ncccc5c4)n3n2)cc1F — patients with adverse event (measured: Cough; cancer patients; oral, dose not given, dose escalation, grade 3-4): 0%
C=CC(=O)Nc1cc(Nc2nccc(-c3cn(C)c4ccccc34)n2)c(OC)cc1N(C)CCN(C)C — recovery (storage stability; human dried blood spots; 72 h, on ice, low QC level): 70%
CCCCC[C@H]1CC[C@H](c2ccc(OCC)c(F)c2F)CC1 — median fetal accumulation (rat, fetus; 5000 ng/mL in perfusate, high dose, mixture of 21 LCMs): 1.65 ng/g
CCO[C@H]1CCN(Cc2c(OC)cc(C)c3[nH]ccc23)[C@H](c2ccc(C(=O)O)cc2)C1 — incidence of oropharyngeal pain (PNH patients, active haemolysis; oral, 50 mg, 4 weeks, treatment): 0%
O=c1[nH]c(=O)n([C@H]2C[C@H](O)[C@@H](CO)O2)cc1CCCCC[18F] — time to peak radioactivity (PET; nude mice, RG2 tumour xenograft, tumour; intravenous, dose not given): 15 min
Cc1nc2cccc(OCC(C)(C)C(=O)NC(C)C)c2c(N)c1C(=O)O — Cmax ratio (female Sprague-Dawley rat, plasma; dietary, 30 mg/kg/day; baseline: day 90 over day 7): 4.18
Cc1cc(Nc2cc3ncccc3c(N[C@@H]3C[C@H]4CC[C@@H](C3)N4CCC#N)n2)n[nH]1 — AUC(0-4) (human, plasma; 80 mg, day 1, geometric mean): 0.00333 µg·h/mL
C=CCN1CC(=O)N2[C@@H](Cc3ccc(O)cc3F)C(=O)N(Cc3cccc(N4CC(N5CCN(CC)CC5)C4)n3)C[C@@H]2N1C(=O)NCc1ccccc1 — treatment-related decreased appetite (advanced solid tumour patients; oral, 10 mg twice daily, grade ≥3, dose-escalation): 0%
O=C(Nc1cnccc1Cl)N1CCN(Cc2ccc3c(c2)OC(F)(F)O3)CC1 — back pain incidence (multiple ascending dose; young men; 25 mg, treatment-emergent adverse events): 33.3%
CCN1/C(=C/C(C)=O)Sc2ccc(F)cc21 — diastolic blood pressure (cynomolgus monkey; oral, 100 mg/kg, 24 h post-dose): 75 ± 6 mmHg
COc1cc(Nc2ncc3c(n2)-c2ccc(Cl)cc2C(c2c(F)cccc2OC)=NC3)ccc1C(=O)O — patients with muscle weakness (cancer patients; oral, dose not given, all grades any attribution, added: pembrolizumab): 21%
Cc1cc(NC2CCN(C(=O)OC3CCN(C(=O)/C=C/CN(C)C)C3)CC2)n2ncc(C(C)C)c2n1 (stereo not drawn) — patients with Hypotension (patients with advanced solid tumours; dose not given, QD arm, any grade): 7%
Cc1ccc(Sc2ccccc2N2CCNCC2)c(C)c1 — participants with TEAE (measured: Diarrhea; healthy adult women; oral, 10 mg daily, 12 days): 0%
CNCc1ccc(-c2[nH]c3cc(F)cc4c3c2CCNC4=O)cc1 — nausea incidence (human patients; oral, 600 mg twice daily, grade 1): 30.8%
O=C(NO)[C@H]1CSC(c2ccc(OC(F)(F)F)c(Cl)c2)=N1 — thermodynamic solubility (aqueous buffer; pH 7.4): < 0.0107 mM
COc1cc2nccc(Oc3ccc(NC(=O)c4cc5c(n(-c6ccccc6)c4=O)CCCC5=O)nc3)c2cc1OC — grade ≥3 Hypophosphatemia patients (relapsed or refractory AML; oral, 6 mg once daily): 33.3%
N#Cc1ccc2c(c1)[C@H]1CCCN(C(=O)c3ccc4[nH]cnc4c3)[C@H]1C2 — median ACTH level (human; 160 mg, end of trial): 6.6 pmol/L
CC(C)(C(=O)N1CCOc2c(C#N)cncc2C1)C(F)F — subjects with contact dermatitis TEAE (human, both sexes; oral, 20 mg single dose): 0%
COc1cc2c3cc1Oc1c(OC)c(OC)cc4c1[C@@H](Cc1ccc(O)c(c1)Oc1ccc(cc1)C[C@@H]3N(C)CC2)N(C)CC4 — remaining compound (mouse plasma, K3EDTA; 2 h, 25-26 °C, room temperature): 96%
CCCCC/C=C\C/C=C\CCCCCCCC(=O)O.Cc1cc(/C=C/C#N)cc(C)c1Nc1ccnc(Nc2ccc(C#N)cc2)n1 — kinetic solubility (Capmul MCM C8): ~150 mg/mL
c1ccc(-c2nc(NCc3ccco3)c3ccccc3n2)nc1 — kinetic solubility (Japanese Pharmacopoeia disintegration test solution 2; pH 6.8): 0.073 mg/mL (≈ 241 µM)
CCN(CC)Cc1ccc2cc(COC(=O)Nc3ccc(C(=O)NO)cc3)ccc2c1 — stability relative error (rat plasma; 5 ng/mL, 3 h, room temperature; baseline: nominal concentration): 96.7%
Cc1ccc(C(=O)N(CCCN)C(c2nc3snc(C)c3c(=O)n2Cc2ccccc2)C(C)C)cc1 (stereo not drawn) — grade ≥3 fatigue patients (human patients; intravenous, 18 mg/day): 0%
CCc1cc(C(=O)NC)c2nccc(N3CCc4c(cc(Cn5ccnc5)cc4-c4cn(C)nc4C(F)(F)F)C3=O)c2c1 — AUC(0-inf) (Sprague-Dawley rats, male, bile duct-cannulated, plasma; oral, 50 mg/kg): 94.8 µg·h/mL
C[C@@H]1COCCN1c1cc(C2([S@](C)(=N)=O)CC2)nc(-c2cc[nH]c3nccc2-3)n1 — Paronychia incidence (Japanese advanced solid tumour patients; oral, 160 mg twice daily, CTCAE grade ≥3): 0%
Cn1cc(Nc2nccc(-c3ccc4c(c3)CN(C3COC3)CC[C@H]4NC(=O)c3cn(C(C)(C)C)nn3)n2)cn1 — class-switched memory B cell change (human, whole blood; 150 mg twice daily, day 14; baseline: pre-dose baseline): 50.5%
C1=C/COCc2cc(ccc2OCCN2CCCC2)Nc2nccc(n2)-c2cccc(c2)COC/1 — stability relative error (rat plasma; 1200 ng/mL, three freeze-thaw cycles; baseline: nominal concentration): 5.42%
CCC(=O)O[C@]1(C(=O)SCF)[C@H](C)C[C@H]2[C@@H]3C[C@H](F)C4=CC(=O)C=C[C@]4(C)[C@@]3(F)[C@@H](O)C[C@@]21C — rapid distribution clearance (three-compartment model; rat, plasma; intravenous, 90 nmol/kg): 5.8 ± 1.6 L/h/kg
Nc1nc2c(nc([N+](=O)[O-])n2[C@@H]2O[C@H](CO)[C@@H](O)[C@H]2O)c(=O)[nH]1 — nucleoside remaining fraction (depurination, RP-HPLC; citrate-phosphate buffer 0.5 mM; 1260 min, pH 5, 37 °C): 0.433
Nc1ncnc2c1ncn2[C@H]1C[C@@H]2OP(=O)(O)OC[C@H]3O[C@@H](n4cnc5c(N)ncnc54)C[C@@H]3OP(=O)(O)OC[C@H]2O1 — glucose (non-tumor-bearing mice, serum; intravenous, 1 mg/kg, toxicity study): 9.55 ± 2.68 mmol/L
COc1ccc2c(c1)CN(C(=O)CCN1CCC(Cc3ccccc3)CC1)CC[S@@+]2[O-] — QTc interval (telemetry; conscious male beagle dogs; intravenous, 4 mg/kg, 0.5 h): 255 ± 12 ms
C[C@@H](c1ccc2nccn2c1)n1nnc2ncc(-c3cnn(C)c3)nc21 — incidence of treatment-related AEs (measured: neutrophil count decreased; EGFR-mutant MET-altered NSCLC patients; oral, dose not given, AE grade ≥3, all): 6%
CC(C)NCCCC[C@@H]1NC(=O)[C@H](Cc2ccc(O)cc2)NC(=O)[C@H](Cc2ccccc2)NC(=O)CC[C@H](C(=O)N[C@@H](CCCCNC(C)C)C(=O)N[C@@H](CCCCNC(=O)[C@H](CCC(=O)O)NC(=O)[C@H](CCC(=O)O)NC(=O)[C@H](CCC(=O)O)NC(=O)CN2CCN(CC(=O)O)CCN(CC(=O)O)CCN(CC(=O)O)CC2)C(N)=O)NC(=O)CNC(=O)[C@H](Cc2ccc3ccccc3c2)NC(=O)[C@@H](CCCNC(=N)N)NC1=O [gallium-68 labelled] — tissue uptake (mouse with Daudi xenograft, bone; intravenous, 2 h): 0.09 %ID/g
Cc1ncc(CO)c(C(=O)O)c1O — AUC(0-12h) (White men, plasma; dose not given): 0.0391 ± 0.0085 µg·h/mL
COc1ccc([C@@H](O)c2cc(-c3ncnc4cc(N5CCOCC5)ccc34)c(F)cc2Cl)nn1 — fatigue TEAE incidence (locally advanced rectal cancer patients; 150 mg, added: capecitabine and radiotherapy): 50%
Cn1cc(-c2cn3nccc3c(-c3cnn([C@]4(CC#N)C[C@@H](C#N)C4)c3)n2)cn1 — MRT (healthy human, plasma; 100 mg once daily, day 10, multiple dose, fed, geometric mean): 9.9 h
c1csc(CNc2cc[nH]n2)c1 — tail DNA (alkaline comet; Hsd:ICR(CD-1) mice, male, liver; oral, 125 mg/kg/day, 3 days): 1.41%
